Published values from different studies.
Compare with care: the assays were run in different laboratories. Values joined by “and” are separate records of one study, mostly repeats; a detail may differ. Numbers after ± are the reported error.
rep main protease: Replicase polyprotein 1ab, main protease (rep, Severe acute respiratory syndrome coronavirus 2, UniProt P0DTD1)
Spike glycoprotein: Spike glycoprotein (Severe acute respiratory syndrome coronavirus 2, UniProt P0DTC2)

Cc1cncc(CC(=O)N2CCC[C@@H]([C@@H]3CCN(C(=O)c4cnn(-c5ccccn5)c4)C3)C2)c1 — inhibition (rep main protease; enzyme activity, inhibitor; 5 µM, mean of runs): 21.1%
Cn1cnc(Cn2c(=O)[nH]/c(=N\c3cc4cn(C)nc4cc3Cl)n(Cc3cc(F)c(F)cc3F)c2=O)n1 — treatment-related TEAE, Moderate severity (human, normal renal function; oral, 375 mg): 0%
CC(=O)O[C@@H]1[C@H](N)[C@@H](OP(=O)(O)O)[C@@]2(C(=O)O)CS[C@@](O)(C(N)=O)[C@@H]1O2 — Kd (DNA-directed RNA polymerase subunit beta' / DNA-directed RNA polymerase subunit beta (rpoC/rpoB, Escherichia coli, UniProt P0A8T7+P0A8V2); binding to elongation complex, 6-MI fluorescence titration; wild-type RNAP; 3′-deoxy RNA 3′-end Adenine): 0.84 ± 0.38 µM
CO[C@H]1[C@@H](O)[C@H](O[C@@H]2[C@@H](C)O[C@@H](O[C@H]3CC[C@@]4(C)[C@@H](CC[C@@]56O[C@@]57CC[C@@H](C(C)=O)[C@@]7(C)[C@H](OC(C)=O)[C@@H](OC(=O)c5ccccc5)[C@H]46)C3)C[C@H]2OC)O[C@H](C)[C@H]1O — kon (Spike glycoprotein; binding, biolayer interferometry): 7790 M⁻¹ s⁻¹
Cc1nc(N)cc(OCCNC(=O)c2ccc(S(=O)(=O)F)cc2)n1 — kinact (cya (Bacillus anthracis, UniProt P40136)): 0.00263 s⁻¹
O=C(c1cc2ccc(O)cc2[nH]1)N1CC2(C1)CN(C(=O)[C@H]1CCc3n[nH]nc3C1)CCO2 — inhibition (rep main protease; enzyme activity, inhibitor; 5 µM, mean of runs): 10.8%
Oc1ccc2ccccc2c1SSc1c(O)ccc2ccccc12 — Hill slope (Replicase polyprotein 1ab, nsp14 N7-methyltransferase (rep, Severe acute respiratory syndrome coronavirus 2, UniProt P0DTD1); N7-methyltransferase activity, inhibitor, Py-FLINT): 0.91 ± 0.11
CCOC(=O)COc1ccc(/C=C2\SC(=S)NC2=O)cc1OC — inhibition (rep main protease; viral replication, mKate2 reporter; SARS-CoV-2; 20 µM): 0.362%
CC[C@H](C)[C@H](NC(=O)[C@H](CC(C)C)NC(=O)[C@H](Cc1c[nH]c2ccccc12)NC(=O)[C@H](CCC(N)=O)NC(=O)[C@@H](NC(=O)[C@H](Cc1ccccc1)NC(=O)[C@H](C)NC(=O)[C@H](CCCCNC(=O)COCCOCCNC(=O)COCCOCCNC(=O)CC[C@H](NC(=O)CCCCCCCCCCCCCCCCCCC(=O)O)C(=O)O)NC(=O)[C@H](CCC(N)=O)NC(=O)[C@H](C)NC(=O)[C@@H](NC(=O)[C@H](CCCCN)NC(=O)[C@H](CC(=O)O)NC(=O)[C@H](CC(C)C)NC(=O)C(C)(C)NC(=O)[C@@H](NC(=O)[C@H](CO)NC(=O)[C@H](Cc1ccc(O)cc1)NC(=O)[C@H](CC(=O)O)NC(=O)[C@H](CO)NC(=O)[C@@H](NC(=O)[C@H](Cc1ccccc1)NC(=O)[C@@H](NC(=O)CNC(=O)[C@H](CCC(=O)O)NC(=O)C(C)(C)NC(=O)[C@@H](N)Cc1ccc(O)cc1)[C@@H](C)O)[C@@H](C)O)[C@@H](C)CC)[C@@H](C)CC)C(C)C)C(=O)N[C@@H](C)C(=O)NCC(=O)NCC(=O)N1CCC[C@H]1C(=O)N[C@@H](CO)C(=O)N[C@@H](CO)C(=O)NCC(=O)N[C@@H](C)C(=O)N1CCC[C@H]1C(=O)N1CCC[C@H]1C(=O)N1CCC[C@H]1C(=O)N[C@@H](CO)C(N)=O — CL/F (human; subcutaneous, 15.0 mg once weekly, week 23, multiple doses): 0.7 mL/min
Nc1ncnc2c([C@@H]3N[C@H](CO)[C@@H](O)[C@H]3O)c[nH]c12 — inhibition (Zaire ebolavirus; viral replication, inhibitor; human Macrophage; 50 µM): 82.9%
O=C(O[C@@H]1Cc2c(O)cc(O)cc2O[C@@H]1c1cc(O)c(O)c(O)c1)c1cc(O)c(O)c(O)c1 — kon (Spike glycoprotein; binding): 1710 M⁻¹ s⁻¹
Cc1ccc2cc(C(=O)N3CCCC4(CCN(c5cc6nncn6c(C)n5)CC4)C3)ccc2c1 — inhibition (rep main protease; enzyme activity, inhibitor; 5 µM, run 2): 8.3%
COc1cc(O)cc2oc(-c3ccc(O)c(O)c3)c(O)c(=O)c12 — inhibition (rep main protease; reporter gene (mKate2), inhibitor; 20 µM): -0.543%
CC(C)(C)[C@H](NC(=O)C(F)(F)F)C(=O)N1C[C@H]2[C@@H]([C@H]1C(=O)N[C@H](C#N)C[C@@H]1CCNC1=O)C2(C)C — Vz/F (human; 500 mg single dose): 2440 L
Cc1cc(C(=O)N2CCC3(CC2)CN(C(=O)C[C@@H]2CC[C@H](O)C2)Cc2ccccc2O3)n[nH]1 — inhibition (rep main protease; enzyme activity, inhibitor; 5 µM, run 2): 11.6%
CC[C@H](C)[C@H](NC(=O)[C@H](CC(C)C)NC(=O)[C@H](Cc1c[nH]c2ccccc12)NC(=O)[C@H](CCC(N)=O)NC(=O)[C@@H](NC(=O)[C@H](Cc1ccccc1)NC(=O)[C@H](C)NC(=O)[C@H](CCCCNC(=O)COCCOCCNC(=O)COCCOCCNC(=O)CC[C@H](NC(=O)CCCCCCCCCCCCCCCCCCC(=O)O)C(=O)O)NC(=O)[C@H](CCC(N)=O)NC(=O)[C@H](C)NC(=O)[C@@H](NC(=O)[C@H](CCCCN)NC(=O)[C@H](CC(=O)O)NC(=O)[C@H](CC(C)C)NC(=O)C(C)(C)NC(=O)[C@@H](NC(=O)[C@H](CO)NC(=O)[C@H](Cc1ccc(O)cc1)NC(=O)[C@H](CC(=O)O)NC(=O)[C@H](CO)NC(=O)[C@@H](NC(=O)[C@H](Cc1ccccc1)NC(=O)[C@@H](NC(=O)CNC(=O)[C@H](CCC(=O)O)NC(=O)C(C)(C)NC(=O)[C@@H](N)Cc1ccc(O)cc1)[C@@H](C)O)[C@@H](C)O)[C@@H](C)CC)[C@@H](C)CC)C(C)C)C(=O)N[C@@H](C)C(=O)NCC(=O)NCC(=O)N1CCC[C@H]1C(=O)N[C@@H](CO)C(=O)N[C@@H](CO)C(=O)NCC(=O)N[C@@H](C)C(=O)N1CCC[C@H]1C(=O)N1CCC[C@H]1C(=O)N1CCC[C@H]1C(=O)N[C@@H](CO)C(N)=O — treatment-emergent ADA positive subjects (healthy subjects, single ascending dose; 0.25 mg, postbaseline): 0%
N=C(N)c1ccc2cc(OC(=O)c3ccc(N=C(N)N)cc3)ccc2c1 — inhibition (rep main protease; reporter gene (mKate2), inhibitor; 20 µM): 0.493%
COP(=O)(OC)OC=C(Cl)Cl — Ki (rat CYP3A; midazolam 4-hydroxylation, non-competitive inhibitor; rat Sprague-Dawley, liver microsomes; 10 min, pH 7.4, added: midazolam 15 to 214 µM): > 5000 µM
CCc1c(C(=O)C(N)=O)c2c(OCC(=O)O)cccc2n1Cc1ccccc1 — remaining activity (Daboia russelii venom phospholipase A2; enzyme activity, inhibitor; KL population; 0.1 µM, added: NOB substrate; baseline: venom alone): 75.4% and 74.1% and 76.2%
COc1ccc(/C=C/c2cc(O)cc(O)c2)cc1O — kon (Spike glycoprotein; binding, BLI): 821 M⁻¹ s⁻¹
O=S(=O)(NC1CCC(c2cc(F)ccc2F)(S(=O)(=O)c2ccc(Cl)cc2)CC1)C(F)(F)F (stereo not drawn) — inhibition (rep main protease; reporter gene (Gaussia luciferase), inhibitor; HEK293T; 20 µM): -1.05%

For quick reference, copied from above:
CCc1c(C(=O)C(N)=O)c2c(OCC(=O)O)cccc2n1Cc1ccccc1 — remaining activity (Daboia russelii venom phospholipase A2; enzyme activity, inhibitor; KL population; 0.1 µM, added: NOB substrate; baseline: venom alone): 75.4% and 74.1% and 76.2%
Cc1nc(N)cc(OCCNC(=O)c2ccc(S(=O)(=O)F)cc2)n1 — kinact (cya (Bacillus anthracis, UniProt P40136)): 0.00263 s⁻¹
